Measurements collected from several papers.
Parts stem from different laboratories: compare values within a part only.
Sequence of UniProt P31751 (whole entry, looked up): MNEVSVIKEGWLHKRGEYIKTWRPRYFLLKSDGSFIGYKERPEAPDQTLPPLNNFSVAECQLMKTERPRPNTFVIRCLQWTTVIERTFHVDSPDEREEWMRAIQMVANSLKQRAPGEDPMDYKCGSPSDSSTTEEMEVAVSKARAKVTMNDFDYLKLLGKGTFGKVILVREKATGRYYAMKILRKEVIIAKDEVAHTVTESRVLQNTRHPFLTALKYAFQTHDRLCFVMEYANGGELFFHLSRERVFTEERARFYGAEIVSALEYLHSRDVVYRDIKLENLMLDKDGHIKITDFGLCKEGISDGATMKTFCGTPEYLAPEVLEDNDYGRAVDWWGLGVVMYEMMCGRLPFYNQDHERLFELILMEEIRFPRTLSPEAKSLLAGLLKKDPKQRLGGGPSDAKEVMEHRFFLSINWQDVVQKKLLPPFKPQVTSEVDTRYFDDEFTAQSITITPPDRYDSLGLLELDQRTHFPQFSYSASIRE
Sequence of UniProt Q15303 (whole entry, looked up): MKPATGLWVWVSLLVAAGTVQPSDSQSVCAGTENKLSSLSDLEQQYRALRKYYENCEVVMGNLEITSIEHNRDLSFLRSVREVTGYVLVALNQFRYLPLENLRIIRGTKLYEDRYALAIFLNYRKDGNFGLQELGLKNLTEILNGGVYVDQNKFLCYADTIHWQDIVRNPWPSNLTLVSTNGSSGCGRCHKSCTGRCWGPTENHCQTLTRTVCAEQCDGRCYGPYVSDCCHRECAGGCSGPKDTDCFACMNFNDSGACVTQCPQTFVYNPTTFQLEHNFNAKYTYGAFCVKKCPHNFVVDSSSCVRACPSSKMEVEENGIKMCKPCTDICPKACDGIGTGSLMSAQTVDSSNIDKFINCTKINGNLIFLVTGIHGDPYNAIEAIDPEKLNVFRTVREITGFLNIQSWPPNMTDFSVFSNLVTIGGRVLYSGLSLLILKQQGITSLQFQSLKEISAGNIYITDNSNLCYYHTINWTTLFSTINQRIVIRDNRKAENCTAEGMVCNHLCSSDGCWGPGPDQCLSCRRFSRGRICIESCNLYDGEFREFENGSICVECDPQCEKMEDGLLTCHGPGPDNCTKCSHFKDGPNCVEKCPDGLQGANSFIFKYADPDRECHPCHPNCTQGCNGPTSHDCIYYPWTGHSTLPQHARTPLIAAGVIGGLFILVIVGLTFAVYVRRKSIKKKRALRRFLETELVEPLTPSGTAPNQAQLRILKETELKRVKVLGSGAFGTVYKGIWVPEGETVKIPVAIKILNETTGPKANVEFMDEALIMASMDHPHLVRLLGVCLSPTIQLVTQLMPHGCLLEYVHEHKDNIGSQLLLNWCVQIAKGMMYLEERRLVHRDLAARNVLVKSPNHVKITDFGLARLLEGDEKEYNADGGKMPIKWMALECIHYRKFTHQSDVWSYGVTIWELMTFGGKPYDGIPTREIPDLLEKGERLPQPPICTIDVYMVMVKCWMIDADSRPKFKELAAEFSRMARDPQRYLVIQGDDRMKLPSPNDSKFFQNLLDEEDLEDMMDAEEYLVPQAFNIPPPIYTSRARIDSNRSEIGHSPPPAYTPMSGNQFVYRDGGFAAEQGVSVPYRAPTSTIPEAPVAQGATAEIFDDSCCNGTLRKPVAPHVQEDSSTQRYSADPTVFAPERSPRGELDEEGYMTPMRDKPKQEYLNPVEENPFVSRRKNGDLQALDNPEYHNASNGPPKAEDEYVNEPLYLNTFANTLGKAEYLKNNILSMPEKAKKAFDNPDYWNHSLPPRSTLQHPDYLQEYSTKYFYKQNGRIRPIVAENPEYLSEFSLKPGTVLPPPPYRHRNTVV
Sequence of UniProt Q86UE8 (whole entry, looked up): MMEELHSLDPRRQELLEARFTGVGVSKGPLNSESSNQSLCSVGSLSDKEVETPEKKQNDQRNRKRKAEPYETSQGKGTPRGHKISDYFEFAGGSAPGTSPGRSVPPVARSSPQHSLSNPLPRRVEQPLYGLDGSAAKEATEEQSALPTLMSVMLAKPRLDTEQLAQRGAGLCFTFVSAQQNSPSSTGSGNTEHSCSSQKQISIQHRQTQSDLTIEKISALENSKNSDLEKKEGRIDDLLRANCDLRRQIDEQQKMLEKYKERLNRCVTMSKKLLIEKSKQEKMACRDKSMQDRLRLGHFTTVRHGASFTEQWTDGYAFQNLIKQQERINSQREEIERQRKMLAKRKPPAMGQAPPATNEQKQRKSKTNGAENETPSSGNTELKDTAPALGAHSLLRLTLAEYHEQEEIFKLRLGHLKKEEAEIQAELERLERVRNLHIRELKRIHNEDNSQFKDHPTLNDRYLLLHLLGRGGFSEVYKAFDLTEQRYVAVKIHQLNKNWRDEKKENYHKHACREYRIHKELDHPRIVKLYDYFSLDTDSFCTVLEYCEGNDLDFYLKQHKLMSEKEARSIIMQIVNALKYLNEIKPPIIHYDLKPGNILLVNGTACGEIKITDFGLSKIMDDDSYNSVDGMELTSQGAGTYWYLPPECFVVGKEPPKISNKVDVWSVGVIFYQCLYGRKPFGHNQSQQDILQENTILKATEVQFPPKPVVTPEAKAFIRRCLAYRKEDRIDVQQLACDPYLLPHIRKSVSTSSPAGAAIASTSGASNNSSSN
Sequence of UniProt Q9HBH9 (whole entry, looked up): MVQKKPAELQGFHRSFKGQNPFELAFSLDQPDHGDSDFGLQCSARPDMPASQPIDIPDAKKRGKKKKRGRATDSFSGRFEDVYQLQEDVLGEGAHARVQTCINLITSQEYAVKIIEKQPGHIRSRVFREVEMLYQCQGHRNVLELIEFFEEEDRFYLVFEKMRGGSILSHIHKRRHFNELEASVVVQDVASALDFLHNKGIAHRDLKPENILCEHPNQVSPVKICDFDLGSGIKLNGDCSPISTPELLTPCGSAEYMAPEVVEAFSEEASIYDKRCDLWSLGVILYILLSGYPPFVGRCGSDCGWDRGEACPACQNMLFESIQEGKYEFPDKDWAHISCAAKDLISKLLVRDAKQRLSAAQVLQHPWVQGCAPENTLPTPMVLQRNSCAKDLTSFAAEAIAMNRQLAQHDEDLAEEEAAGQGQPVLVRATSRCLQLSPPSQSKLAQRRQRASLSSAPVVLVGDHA
Sequence of UniProt Q9UBF8 (whole entry, looked up): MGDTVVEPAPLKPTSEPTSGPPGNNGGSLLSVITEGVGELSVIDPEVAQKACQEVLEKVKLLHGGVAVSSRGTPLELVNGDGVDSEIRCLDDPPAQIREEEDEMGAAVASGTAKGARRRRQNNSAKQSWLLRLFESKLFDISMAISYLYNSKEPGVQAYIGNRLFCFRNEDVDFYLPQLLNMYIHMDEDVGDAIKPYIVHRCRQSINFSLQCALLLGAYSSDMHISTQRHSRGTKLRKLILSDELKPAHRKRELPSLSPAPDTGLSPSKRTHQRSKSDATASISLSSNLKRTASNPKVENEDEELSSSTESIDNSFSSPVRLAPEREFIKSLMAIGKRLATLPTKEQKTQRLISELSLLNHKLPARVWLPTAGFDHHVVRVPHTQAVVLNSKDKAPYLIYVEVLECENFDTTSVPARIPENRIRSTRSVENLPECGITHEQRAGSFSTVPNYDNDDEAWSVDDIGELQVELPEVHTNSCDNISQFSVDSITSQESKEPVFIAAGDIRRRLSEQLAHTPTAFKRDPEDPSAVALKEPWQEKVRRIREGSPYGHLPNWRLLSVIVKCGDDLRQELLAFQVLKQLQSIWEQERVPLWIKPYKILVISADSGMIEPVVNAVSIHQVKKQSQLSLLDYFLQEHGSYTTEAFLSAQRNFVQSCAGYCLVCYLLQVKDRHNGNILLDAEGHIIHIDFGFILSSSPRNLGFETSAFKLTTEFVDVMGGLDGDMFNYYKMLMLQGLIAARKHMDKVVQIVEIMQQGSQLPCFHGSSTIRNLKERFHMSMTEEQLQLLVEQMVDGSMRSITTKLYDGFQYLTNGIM
Sequence of UniProt Q16566 (whole entry, looked up): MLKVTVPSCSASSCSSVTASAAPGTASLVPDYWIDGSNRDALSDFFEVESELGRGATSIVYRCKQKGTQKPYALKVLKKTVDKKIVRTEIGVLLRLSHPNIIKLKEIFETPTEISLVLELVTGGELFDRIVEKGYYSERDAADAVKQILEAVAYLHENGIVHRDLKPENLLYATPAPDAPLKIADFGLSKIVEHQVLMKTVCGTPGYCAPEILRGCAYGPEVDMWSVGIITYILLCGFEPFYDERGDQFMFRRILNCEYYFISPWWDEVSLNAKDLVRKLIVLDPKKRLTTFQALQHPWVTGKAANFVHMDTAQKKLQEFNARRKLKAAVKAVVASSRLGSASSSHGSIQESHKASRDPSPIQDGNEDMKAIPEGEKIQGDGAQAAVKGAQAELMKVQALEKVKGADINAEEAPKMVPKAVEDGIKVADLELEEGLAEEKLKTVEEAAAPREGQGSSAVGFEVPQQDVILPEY

Set 1
Target: Calcium/calmodulin-dependent protein kinase type II subunit alpha (CAMK2A, Homo sapiens, UniProt Q9UQM7)
Sequence of UniProt Q9UQM7 (whole entry, looked up): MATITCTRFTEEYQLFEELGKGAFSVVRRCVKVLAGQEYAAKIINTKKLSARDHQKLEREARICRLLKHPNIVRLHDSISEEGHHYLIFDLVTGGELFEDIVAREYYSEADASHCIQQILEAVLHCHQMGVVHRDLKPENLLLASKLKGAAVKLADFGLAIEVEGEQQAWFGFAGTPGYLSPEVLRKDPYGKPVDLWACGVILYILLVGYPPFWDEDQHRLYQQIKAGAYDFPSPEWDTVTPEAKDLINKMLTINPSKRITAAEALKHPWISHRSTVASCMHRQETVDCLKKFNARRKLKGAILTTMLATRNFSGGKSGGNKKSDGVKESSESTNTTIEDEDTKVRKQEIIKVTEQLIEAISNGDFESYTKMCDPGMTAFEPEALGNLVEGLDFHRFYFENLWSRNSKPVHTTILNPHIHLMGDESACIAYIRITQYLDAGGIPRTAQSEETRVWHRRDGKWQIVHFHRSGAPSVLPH
Effect on: enzyme activity
Mode: inhibitor
Concentration: 10 µM
SMILES	inhibition [%]
COc1cc2ccc(=O)oc2c(O)c1OC	3
O=C(/C=C/c1ccc(O[C@@H]2O[C@H](CO)[C@@H](O)[C@H](O)[C@H]2O)cc1)c1ccc(O)cc1O	-34
COc1cc(O)c2c(=O)c(O)c(-c3ccc(O)cc3)oc2c1	1
CSCCC(O)C(=O)O (stereo not drawn)	-50
CN1CCC[C@@H]1Cc1c[nH]c2ccc(CCS(=O)(=O)c3ccccc3)cc12	-6
Nc1nc2c(ncn2COC(CO)CO)c(=O)[nH]1	-3
O=c1c(O[C@@H]2O[C@H](CO)[C@@H](O)[C@H](O)[C@H]2O)c(-c2ccc(O)c(O)c2)oc2cc(O[C@@H]3O[C@H](CO[C@@H]4O[C@H](CO)[C@@H](O)[C@H](O)[C@H]4O)[C@@H](O)[C@H](O)[C@H]3O)cc(O)c12	-3
CCCCCCCCCC[C@H](C(=O)O)[C@]1(C(=O)O)CCC(=O)O1	13

Set 2
Structure (SMILES): COc1cc2ncnc(Nc3cccc(Cl)c3)c2cc1OC
Effect on: enzyme activity
Mode: inhibitor
Concentration: 0.5 µM
Baseline: control
target	remaining activity [%]
CLK3 (Homo sapiens, UniProt P49761)	90.5
MARK4 (Homo sapiens, UniProt Q96L34)	98.5
MET (Homo sapiens, UniProt P08581)	75.5
MAPK14 (Homo sapiens, UniProt Q16539)	107
DCLK2 (Homo sapiens, UniProt Q8N568)	94.7
PLK3 (Homo sapiens, UniProt Q9H4B4)	92.3
MAPK1 (Homo sapiens, UniProt P28482)	91.7
KDR (Homo sapiens, UniProt P35968)	74.7
MAP2K1 (Homo sapiens, UniProt Q02750)	98.5
TXK (Homo sapiens, UniProt P42681)	75
CAMK4 (Homo sapiens, UniProt Q16566)	94.4
NEK3 (Homo sapiens, UniProt P51956)	84.3
RPS6KA4 (Homo sapiens, UniProt O75676)	94.5
MINK1 (Homo sapiens, UniProt Q8N4C8)	83.1
ROCK1 (Homo sapiens, UniProt Q13464)	95.9
Myosin-IIIb (MYO3B, Homo sapiens, UniProt Q8WXR4)	81.2
DDR2 (Homo sapiens, UniProt Q16832)	99.2
GRK4 (Homo sapiens, UniProt P32298)	102
CLK4 (Homo sapiens, UniProt Q9HAZ1)	98.2
CDC42BPB (Homo sapiens, UniProt Q9Y5S2)	84.9
AKT2 (Homo sapiens, UniProt P31751)	84.1
PNCK (Homo sapiens, UniProt Q6P2M8)	89.6
Cyclin-dependent kinase 9, with cyclin K (CDK9, Homo sapiens, UniProt P50750)	106
PAK3 (Homo sapiens, UniProt O75914)	98.9
TLK2 (Homo sapiens, UniProt Q86UE8)	93.9

Set 3
SMILES: CO[C@@H]1[C@H](N(C)C(=O)c2ccccc2)C[C@H]2O[C@]1(C)n1c3ccccc3c3c4c(c5c6ccccc6n2c5c31)C(=O)NC4
Effect on: enzyme activity
Mode: inhibitor
Concentration: 1 µM
target	inhibition
ERBB4 (Homo sapiens, UniProt Q15303)	16%
STK25 (Homo sapiens, UniProt O00506)	0%
PI4KB (Homo sapiens, UniProt Q9UBF8)	20%
LRRK2 (Homo sapiens, UniProt Q5S007)	75%
TLK2 (Homo sapiens, UniProt Q86UE8)	0%
MAP2K3 (Homo sapiens, UniProt P46734)	60%
TYRO3 (Homo sapiens, UniProt Q06418)	44%
PAK4 (Homo sapiens, UniProt O96013)	3%
PRKCQ (Homo sapiens, UniProt Q04759)	73%
DDR1 (Homo sapiens, UniProt Q08345)	0%
PHKG2 (Homo sapiens, UniProt P15735)	41%
CDK18 (Homo sapiens, UniProt Q07002)	0%
Insulin receptor (INSR, Homo sapiens, UniProt P06213)	0%

Set 4
Compound: CCS(=O)(=O)c1cc2cc(C[C@](O)(CC(C)(C)c3ccc(F)cc3C(N)=O)C(F)(F)F)[nH]c2cn1
Effect on: cell-free assay
Method: competition with immobilised ligand
Concentration: 1 µM
target	remaining binding
RIOK1 (Homo sapiens, UniProt Q9BRS2)	80%
CILK1 (Homo sapiens, UniProt Q9UPZ9)	100%
TGFBR1 (Homo sapiens, UniProt P36897)	100%
PIK3CG (Homo sapiens, UniProt P48736)	80%
NEK5 (Homo sapiens, UniProt Q6P3R8)	100%
PIK3CA (Homo sapiens, UniProt P42336, E545K)	80%
AKT2 (Homo sapiens, UniProt P31751)	94%
MKNK2 (Homo sapiens, UniProt Q9HBH9)	100%
ERBB4 (Homo sapiens, UniProt Q15303)	100%
GSK3A (Homo sapiens, UniProt P49840)	100%
SRPK2 (Homo sapiens, UniProt P78362)	82%
TBK1 (Homo sapiens, UniProt Q9UHD2)	93%
COQ8B (Homo sapiens, UniProt Q96D53)	78%
ZAP70 (Homo sapiens, UniProt P43403)	71%
VRK2 (Homo sapiens, UniProt Q86Y07)	100%
STK36 (Homo sapiens, UniProt Q9NRP7)	100%
MET (Homo sapiens, UniProt P08581, Y1235D)	100%

Repeated from above (set 4):
target	remaining binding
NEK5 (Homo sapiens, UniProt Q6P3R8)	100%
PIK3CA (Homo sapiens, UniProt P42336, E545K)	80%
AKT2 (Homo sapiens, UniProt P31751)	94%
MKNK2 (Homo sapiens, UniProt Q9HBH9)	100%
ERBB4 (Homo sapiens, UniProt Q15303)	100%
